# Measured values of several laboratories.
# Lines come from different studies, so protocols differ. Values joined by “and” are separate records of one study, mostly repeats; a detail may differ.
# Organism: SARS-CoV-2
Molecule,test,system,conditions,how to read,measurement,value
CN(C)CCNC(=O)c1ccc2c(c1)C1(CCN(CC3CC3)C1)CN2Cc1ccccc1 (centres unmarked),cytopathic effect,USA_WA1/2020,"round 2, 5-point",,maximum response,94.3%
Cc1nn(-c2ccc(Cl)cc2)c2c1C(c1ccc(F)cc1F)C(C#N)=C(N)O2 (centres unmarked),"RT-qPCR, item: viral RNA",Vero,10 µM,higher means less virus,Ct value,25.5 cycles
O=c1c(O)c(-c2ccc(O)c(O)c2)oc2cc(O)cc(O)c12,,Vero E6,"concentration not given, NYC laboratory",,viral replication inhibition,inactive
CC(C)(C)NC[C@H](O)COc1ccccc1C1CCCC1,"viral replication, high-content imaging screen",,cell-based,,EC50,20 µM
Cc1nn(-c2ccc(Cl)cc2)c2c1C(c1c(Cl)cccc1Cl)C(C#N)=C(N)O2 (centres unmarked),,Vero,10 µM,,viral titre,568000 IU/mL
CC[C@H](NC(=O)[C@H](CS(=O)(=O)CC1CC1)N[C@@H](c1ccc(F)cc1)C(F)(F)F)C(=O)C(=O)NC1CC1,viral replication,"Huh-7-ACE2, USA-WA1/2020",,,EC90,> 2.5 µM
COc1ccc(C(CN(C)C)C2(O)CCCCC2)cc1 (centres unmarked),"viral replication, RT-qPCR",A549 expressing ACE2,,,IC50,> 10 µM
COc1ccc(-c2sc(NC(=O)C(C)(C)C)nc2C)cc1S(=O)(=O)Nc1ccc(O)cc1,,,"concentration not given, Paris laboratory",,viral replication inhibition,inactive
COc1ccc2c(c1)N(C[C@H](C)CN(C)C)c1ccccc1S2,"viral replication, GFP plate reader screen",,cell-based,,EC50,> 100 µM
O=C(O[C@@H]1Cc2c(O)cc(O)cc2O[C@@H]1c1cc(O)c(O)c(O)c1)c1cc(O)c(O)c(O)c1,viral replication,Vero E6,12.5 µM,,CPE inhibition,0%
C[C@H]1[C@H]2CC[C@H]3[C@@H]4CC=C5C[C@@H](N(C)C)CC[C@]5(C)[C@H]4CC[C@]23CN1C,"viral replication, high-content imaging screen",,cell-based,,EC50,> 25.1 µM
CCN(CC)C(=O)C1(c2ccccc2)CC1CN (centres unmarked),"viral replication, anti-nucleoprotein immunostaining",Vero E6,,,IC50,> 10 µM
Cc1cc(OCCN2CCOCC2)nn1-c1ccc2ccccc2c1,,Vero E6,"concentration not given, NYC laboratory",,viral replication inhibition,inactive
CN(C)CCCN1c2ccccc2Sc2ccc(Cl)cc21,"viral replication, RT-qPCR",A549 expressing ACE2,,,IC50,0.891 µM
Nc1ncnc2c1ncn2[C@@H]1O[C@H](CO)C[C@H]1O,,SB2,"concentration not given, 3 h, unit not given",reference: DMSO,viral RNA level,0.209 and 0.147
Cn1cncc1[C@@](N)(c1ccc(Cl)cc1)c1ccc2c(c1)c(-c1cccc(Cl)c1)cc(=O)n2C,viral replication,"Vero C1008, USA-WA1/2020","2.5 µM, reconfirmation",,inhibition,42.6%
Atovaquone,viral replication,Huh-7,,,IC50,> 2 µM
Cc1nn(-c2ccc(Cl)cc2)c2c1C(c1ccc(-c3ccccc3)cc1)C(C#N)=C(N)O2 (centres unmarked),"RT-qPCR, item: viral RNA",Vero,1 µM,higher means less virus,Ct value,24.1 cycles
CC(=O)O[C@]1(C(C)=O)CC[C@H]2[C@@H]3CCC4=CC(=O)CCC4=C3[C@@H](c3ccc(N(C)C)cc3)C[C@@]21C,viral replication,Huh-7,,,IC50,> 2 µM
Cc1nn(-c2ccc(Cl)cc2)c2c1C(c1ccc(Cl)cc1Cl)C(C#N)=C(N)O2 (centres unmarked),,Vero C1008,1 µM,reference: positive control,viral titre log reduction,0.0994 log10
CC(C)(C)[C@H](NC(=O)C(F)(F)F)C(=O)N1C[C@H]2[C@@H]([C@H]1C(=O)N[C@H](C#N)C[C@@H]1CCNC1=O)C2(C)C,"viral replication, infectious virus",Vero E6,0.0156 µM,,inhibition,30.1%
CCc1ccc(Sc2cc(C(=O)NCCCN3CCC(C)CC3)c3ccccc3n2)cc1,cytopathic effect,USA_WA1/2020,"retest, 8-point, duplicates",,maximum response,85.5%
O=S(=O)(NCCNC/C=C/c1ccc(Br)cc1)c1cccc2cnccc12,,,"concentration not given, Paris laboratory",,viral replication inhibition,inactive
C=C1C(=CC=C2CCCC3(C)C2CCC3C(C)C=CC(O)C2CC2)CC(O)CC1O (centres unmarked),viral replication,Huh-7,,,IC50,> 2 µM
CCCN(CCC)CCNC(=O)c1cc(Sc2ccc(Cl)cc2)nc2ccccc12,cytopathic effect,USA_WA1/2020,first round 5-point,,efficacy,97.2%
COc1ccc(C[C@@H]2c3cc(Oc4cc(C[C@@H]5c6cc(O)c(OC)cc6CCN5C)ccc4O)c(OC)cc3CCN2C)cc1,viral replication,Vero E6,6.25 µM,,CPE inhibition,0%
Nc1nc(F)nc2c1ncn2[C@@H]1O[C@H](COP(=O)(O)O)[C@@H](O)[C@@H]1O,viral replication,Huh-7,,,IC50,> 2 µM
CCCCCCC(C)(C)c1cc(O)c2c(c1)OC(C)(C)[C@@H]1CC=C(C(=O)O)C[C@@H]21,"viral replication, high-content imaging screen",,cell-based,,EC50,> 100 µM
CN1CC[C@@]23CCCC[C@@H]2[C@@H]1Cc1ccc(O)cc13,viral replication,Vero E6,inactive set pIC50 4,,IC50,> 10 µM
C[C@@H]1CS/C(=N\NC(=O)C(=O)[C@H](NC(=O)C2CCCCCC2)C2CCOCC2)N1C,"viral replication, inhibitor","Vero E6, USA-WA1/2020",24 h,,EC90,0.939 µM
O=c1[nH]c2ccccc2n1CCCN1CCN(C(c2ccccc2)c2ccccc2)CC1,"viral replication, high-content imaging screen",,cell-based,,EC50,> 100 µM
CCC(CC)COC(=O)[C@H](C)N[P@](=O)(OC[C@H]1O[C@@](C#N)(c2ccc3c(N)ncnn23)[C@H](O)[C@@H]1O)Oc1ccccc1,,Vero,1 µM,,viral titre,110000 IU/mL
O=NN(CCCl)C(=O)NCCCl,viral replication,Huh-7,,,IC50,> 2 µM
O=C(Nc1ccccc1)OCC(CN1CCCCC1)OC(=O)Nc1ccccc1 (centres unmarked),"viral replication, high-content imaging screen",,cell-based,,EC50,> 25.1 µM
O=C(CCc1ccc(CC2CCN(Cc3c[nH]c4ccccc34)CC2)cc1)N1CCCC1,cytopathic effect,USA_WA1/2020,"round 2, 5-point",,efficacy,36.2%
Clc1ccc(-c2nn(Cc3ccccc3)c3c2CCNCC3)cc1,"viral replication, GFP plate reader screen",BetaCov/Belgium/GHB-03021/2020,cell-based,,EC50,> 25.1 µM and > 20 µM
CCCN(CCC)CCCNC(=O)C1CCCN(Cc2nc(-c3ccc(Cl)cc3)oc2C)C1 (centres unmarked),cytopathic effect,USA_WA1/2020,,,AC50,12.6 µM
Cc1cc2c(s1)Nc1ccccc1N=C2N1CCN(C)CC1,,Vero E6,"concentration not given, NYC laboratory",,viral replication inhibition,inactive
Cc1ncccc1-c1nc2cc(C(=O)NCCCc3ccccc3)ccc2o1,"cytopathic effect, cell-based CPE",USA_WA1/2020,"round 2, 5-point dilution",,AC50,15.8 µM
CC(C)=CCc1c(O)ccc(C(=O)/C=C/c2ccc(O)cc2)c1O,viral replication,Vero E6,0.7812 µM,reference: mean of replicates,CPE inhibition,0%
COc1cccc(-c2ccccc2NC(=O)C2CCN(Cc3ccccc3F)CC2)c1,cytopathic effect,USA_WA1/2020,"retest, 8-point, duplicates",,efficacy,55.8%
C[C@@H](Oc1cc(-c2cnn(C3CCNCC3)c2)cnc1N)c1c(Cl)ccc(F)c1Cl,"viral replication, high-content imaging screen",,cell-based,,EC50,4.47 µM
O=C(/C=C/c1ccc(O)c(O)c1/C=C/c1ccc(O)c(O)c1)O[C@H](Cc1ccc(O)c(O)c1)C(=O)O,cytopathic effect,Vero E6,"3.125 µM, replicate run",,mean inhibition,0%
COc1ccc(N2CCN(CCCNC(=O)c3cc(Nc4ccc(OC)cc4OC)nc4ccccc34)CC2)cc1,"cytopathic effect, cell-based CPE",USA_WA1/2020,"round 2, 5-point dilution",,AC50,11.2 µM
